Measured values pooled from the literature.
Lines come from different studies, so protocols differ. Values joined by “and” are separate records of one study, mostly repeats; a detail may differ. Numbers after ± are the reported error.
UniProt Q9UM07, sequence (whole entry, looked up): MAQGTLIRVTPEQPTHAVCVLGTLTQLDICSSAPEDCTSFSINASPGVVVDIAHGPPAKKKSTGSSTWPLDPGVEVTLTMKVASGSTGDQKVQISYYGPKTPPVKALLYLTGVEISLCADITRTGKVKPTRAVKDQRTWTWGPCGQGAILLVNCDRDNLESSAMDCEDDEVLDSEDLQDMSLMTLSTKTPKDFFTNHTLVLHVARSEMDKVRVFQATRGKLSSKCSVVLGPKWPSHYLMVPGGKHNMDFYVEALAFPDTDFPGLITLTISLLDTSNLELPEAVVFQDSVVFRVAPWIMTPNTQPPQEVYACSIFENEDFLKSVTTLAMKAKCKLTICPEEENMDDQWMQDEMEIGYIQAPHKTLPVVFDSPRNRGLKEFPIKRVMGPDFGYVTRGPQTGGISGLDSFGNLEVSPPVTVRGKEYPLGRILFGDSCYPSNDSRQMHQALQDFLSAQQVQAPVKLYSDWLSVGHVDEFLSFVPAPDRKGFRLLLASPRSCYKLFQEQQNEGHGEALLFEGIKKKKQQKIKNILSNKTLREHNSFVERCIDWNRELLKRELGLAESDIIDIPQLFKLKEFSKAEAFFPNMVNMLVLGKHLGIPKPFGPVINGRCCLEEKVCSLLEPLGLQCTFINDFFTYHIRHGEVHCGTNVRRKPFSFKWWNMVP
UniProt P0AC13, sequence (whole entry, looked up): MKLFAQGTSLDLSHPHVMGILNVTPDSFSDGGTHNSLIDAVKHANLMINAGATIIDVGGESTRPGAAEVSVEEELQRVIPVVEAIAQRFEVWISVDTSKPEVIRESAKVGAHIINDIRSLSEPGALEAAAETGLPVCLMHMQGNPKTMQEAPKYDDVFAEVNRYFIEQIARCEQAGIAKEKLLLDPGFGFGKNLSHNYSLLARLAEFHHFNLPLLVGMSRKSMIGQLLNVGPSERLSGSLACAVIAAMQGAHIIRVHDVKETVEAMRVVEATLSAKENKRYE
UniProt P06241, sequence (whole entry, looked up): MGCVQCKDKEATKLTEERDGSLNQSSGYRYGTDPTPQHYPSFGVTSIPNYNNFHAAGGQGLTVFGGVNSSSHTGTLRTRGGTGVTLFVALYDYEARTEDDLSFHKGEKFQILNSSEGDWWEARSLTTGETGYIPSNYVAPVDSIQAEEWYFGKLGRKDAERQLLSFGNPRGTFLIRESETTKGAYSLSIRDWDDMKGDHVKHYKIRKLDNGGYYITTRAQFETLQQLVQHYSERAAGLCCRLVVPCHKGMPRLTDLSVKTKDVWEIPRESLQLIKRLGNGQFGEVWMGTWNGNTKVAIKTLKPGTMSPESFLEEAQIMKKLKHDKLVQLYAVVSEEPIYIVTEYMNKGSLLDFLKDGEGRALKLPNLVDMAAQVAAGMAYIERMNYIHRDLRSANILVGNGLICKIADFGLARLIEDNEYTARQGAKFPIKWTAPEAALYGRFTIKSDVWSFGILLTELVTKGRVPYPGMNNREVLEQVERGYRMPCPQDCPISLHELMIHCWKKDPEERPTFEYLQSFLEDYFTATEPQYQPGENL
UniProt O15146, sequence (whole entry, looked up): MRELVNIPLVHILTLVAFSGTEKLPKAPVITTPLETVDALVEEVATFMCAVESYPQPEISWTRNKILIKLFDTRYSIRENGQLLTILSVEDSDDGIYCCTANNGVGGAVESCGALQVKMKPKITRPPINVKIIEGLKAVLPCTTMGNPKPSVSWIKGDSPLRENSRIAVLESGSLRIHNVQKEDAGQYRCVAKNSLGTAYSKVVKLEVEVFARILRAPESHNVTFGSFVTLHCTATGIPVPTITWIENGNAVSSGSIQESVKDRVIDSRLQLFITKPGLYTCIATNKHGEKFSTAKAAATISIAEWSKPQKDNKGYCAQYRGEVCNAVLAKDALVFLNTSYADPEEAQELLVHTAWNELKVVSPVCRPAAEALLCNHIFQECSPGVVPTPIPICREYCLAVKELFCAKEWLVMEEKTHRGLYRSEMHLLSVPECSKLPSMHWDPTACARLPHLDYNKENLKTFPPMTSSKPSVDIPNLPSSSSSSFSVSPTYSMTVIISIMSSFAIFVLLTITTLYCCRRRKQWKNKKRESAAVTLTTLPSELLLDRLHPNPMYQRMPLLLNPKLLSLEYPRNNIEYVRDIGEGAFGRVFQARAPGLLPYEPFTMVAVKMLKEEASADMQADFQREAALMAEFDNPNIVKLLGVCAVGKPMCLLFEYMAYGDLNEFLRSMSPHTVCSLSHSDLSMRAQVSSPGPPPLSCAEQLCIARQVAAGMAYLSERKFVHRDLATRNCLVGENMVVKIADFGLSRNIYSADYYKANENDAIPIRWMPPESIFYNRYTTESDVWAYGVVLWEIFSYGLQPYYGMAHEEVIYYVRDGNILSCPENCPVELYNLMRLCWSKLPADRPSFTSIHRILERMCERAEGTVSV
UniProt P34969, sequence (whole entry, looked up): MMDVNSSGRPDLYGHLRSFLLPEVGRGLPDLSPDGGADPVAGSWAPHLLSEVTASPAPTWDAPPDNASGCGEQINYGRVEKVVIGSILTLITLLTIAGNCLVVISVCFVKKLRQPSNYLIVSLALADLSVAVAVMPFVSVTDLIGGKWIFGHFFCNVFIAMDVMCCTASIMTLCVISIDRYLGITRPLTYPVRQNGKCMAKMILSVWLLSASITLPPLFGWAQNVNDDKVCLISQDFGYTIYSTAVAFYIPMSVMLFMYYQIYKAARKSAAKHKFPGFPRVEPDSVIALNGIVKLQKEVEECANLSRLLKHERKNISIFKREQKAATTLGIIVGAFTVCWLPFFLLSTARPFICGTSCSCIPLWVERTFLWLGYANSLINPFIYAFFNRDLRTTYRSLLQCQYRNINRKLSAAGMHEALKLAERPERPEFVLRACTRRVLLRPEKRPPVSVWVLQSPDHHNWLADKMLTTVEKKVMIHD
UniProt Q96S38, sequence (whole entry, looked up): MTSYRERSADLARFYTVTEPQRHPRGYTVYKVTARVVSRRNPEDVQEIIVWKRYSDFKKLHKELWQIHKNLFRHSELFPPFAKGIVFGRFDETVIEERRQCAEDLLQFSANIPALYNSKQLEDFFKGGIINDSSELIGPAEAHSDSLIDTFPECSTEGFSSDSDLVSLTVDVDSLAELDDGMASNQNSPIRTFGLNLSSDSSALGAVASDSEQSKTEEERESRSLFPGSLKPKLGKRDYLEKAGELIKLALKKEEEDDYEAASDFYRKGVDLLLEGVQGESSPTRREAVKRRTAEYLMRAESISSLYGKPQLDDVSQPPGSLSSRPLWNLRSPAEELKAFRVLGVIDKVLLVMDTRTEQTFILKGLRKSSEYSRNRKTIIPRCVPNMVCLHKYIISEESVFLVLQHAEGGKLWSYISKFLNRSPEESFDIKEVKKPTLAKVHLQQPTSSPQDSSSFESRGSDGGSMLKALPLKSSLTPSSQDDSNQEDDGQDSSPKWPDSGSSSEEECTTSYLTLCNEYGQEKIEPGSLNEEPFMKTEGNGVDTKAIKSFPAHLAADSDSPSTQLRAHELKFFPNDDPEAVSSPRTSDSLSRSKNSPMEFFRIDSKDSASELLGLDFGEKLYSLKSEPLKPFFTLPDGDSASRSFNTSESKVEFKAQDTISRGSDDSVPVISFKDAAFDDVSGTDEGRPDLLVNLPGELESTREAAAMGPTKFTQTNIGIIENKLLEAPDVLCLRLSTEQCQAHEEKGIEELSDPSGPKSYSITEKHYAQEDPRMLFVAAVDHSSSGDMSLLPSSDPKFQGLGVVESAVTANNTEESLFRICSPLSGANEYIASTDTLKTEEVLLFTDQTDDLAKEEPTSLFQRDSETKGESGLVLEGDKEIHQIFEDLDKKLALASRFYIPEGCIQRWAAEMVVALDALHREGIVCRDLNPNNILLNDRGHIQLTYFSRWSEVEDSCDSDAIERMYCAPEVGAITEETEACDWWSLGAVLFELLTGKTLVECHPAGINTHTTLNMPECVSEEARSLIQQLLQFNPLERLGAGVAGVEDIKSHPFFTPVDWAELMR
UniProt Q6DWJ6, sequence (whole entry, looked up): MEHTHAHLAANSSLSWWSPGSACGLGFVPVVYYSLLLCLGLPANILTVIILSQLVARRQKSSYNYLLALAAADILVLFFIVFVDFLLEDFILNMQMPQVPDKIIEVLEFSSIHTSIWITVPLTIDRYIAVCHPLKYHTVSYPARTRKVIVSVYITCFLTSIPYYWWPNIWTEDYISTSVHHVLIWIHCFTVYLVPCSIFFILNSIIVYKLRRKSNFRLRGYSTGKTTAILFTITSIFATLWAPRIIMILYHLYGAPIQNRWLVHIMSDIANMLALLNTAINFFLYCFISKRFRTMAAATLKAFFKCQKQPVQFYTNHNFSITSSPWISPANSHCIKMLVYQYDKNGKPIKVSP
UniProt P53779, sequence (whole entry, looked up): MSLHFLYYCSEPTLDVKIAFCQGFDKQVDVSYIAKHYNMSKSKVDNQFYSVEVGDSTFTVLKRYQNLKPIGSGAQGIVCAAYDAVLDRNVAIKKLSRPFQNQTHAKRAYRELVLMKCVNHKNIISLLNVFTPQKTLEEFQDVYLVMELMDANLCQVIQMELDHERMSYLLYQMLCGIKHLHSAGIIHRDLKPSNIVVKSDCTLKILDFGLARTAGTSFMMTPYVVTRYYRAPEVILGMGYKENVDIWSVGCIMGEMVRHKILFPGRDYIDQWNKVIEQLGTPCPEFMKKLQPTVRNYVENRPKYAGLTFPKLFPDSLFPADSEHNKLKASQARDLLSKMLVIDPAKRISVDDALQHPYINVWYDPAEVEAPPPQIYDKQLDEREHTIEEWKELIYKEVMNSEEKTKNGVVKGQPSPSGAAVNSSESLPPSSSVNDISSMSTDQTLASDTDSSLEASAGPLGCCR

Compound | target or system | test | system | setting | how to read | endpoint | value
O=C1NC(=O)c2c1c1cc(F)c[n+]3c1c1c2c2cc(O)ccc2[n]1[Ru-4]312([N]=C=S)[S+]3CC[S+]1CC[S+]2CC3 (stereo not drawn) | Tyrosine-protein kinase Fyn (FYN, Homo sapiens, UniProt P06241) | enzyme activity |  | 100 nM, human enzyme, together with: 10 µM ATP | baseline: untreated | remaining activity | 35%
CC[C@H](C)[C@H](NC(=O)[C@H](CO)NC(=O)[C@H](Cc1ccc(O)cc1)NC(=O)[C@H](Cc1ccc(O)cc1)NC(=O)[C@H](CC(N)=O)NC(=O)CNC(=O)[C@H](CO)NC(=O)[C@H](Cc1ccc(O)cc1)NC(=O)[C@H](CO)NC(=O)[C@H](CO)NC(=O)[C@H](CC(N)=O)NC(=O)COCCOCCNC(=O)CN1CCN(CC(=O)O)CCN(CC(=O)O)CCN(CC(=O)O)CC1)C(=O)N[C@@H](CC(C)C)C(N)=O [copper-64 labelled] |  | dynamic PET | mouse, tamoxifen-induced PDAC, blood | intravenous, 0.1 µg/mouse, 7.5 min |  | tumour uptake | 10.2 %ID/mL
CCOC(=O)[C@@H]1Cc2c(cc([N+](=O)[O-])cc2[N+](=O)[O-])[C@H](O)[C@]12C(=O)Nc1ccc(Br)cc12 | Proto-oncogene tyrosine-protein kinase Src (SRC, Homo sapiens, UniProt P12931) | binding, competition with immobilised ligand |  | 0.1 µM |  | remaining binding | 88%
CC(C)[C@H]1NC(=O)C[C@H]2/C=C/CCSSC[C@@H](NC1=O)C(=O)N[C@H](Cc1cccc3ccccc13)C(=O)NCC(=O)O2 | Serine/threonine-protein kinase 10 (STK10, Homo sapiens, UniProt O94804) | enzyme activity, inhibitor |  | 10 µM |  | inhibition | 16.3%
C=CC(=O)NC[C@H](NC(=O)[C@H](CC1CCCCC1)NC(=O)[C@H](CCC(N)=O)NC(C)=O)C(=O)N[C@@H](CC(C)C)C(=O)N[C@@H](Cc1ccccc1)C(=O)O | Beta sliding clamp (Escherichia coli, UniProt P0A988) | binding, isothermal titration calorimetry |  | 22 °C |  | ΔG | -9.4 kcal/mol
Cc1sc2c(c1C)C(c1ccc(Cl)cc1)=NC(CC(=O)OC(C)(C)C)c1nnc(C)n1-2 (stereo not drawn) | 5-hydroxytryptamine receptor 7 (HTR7, Homo sapiens, UniProt P34969) | ligand displacement, radioligand |  | 1 µM |  | remaining binding | 112%
CN(C)CCCSC(=S)N1CCN(C(=O)/C=C/c2coc3ccccc3c2=O)CC1 | Nucleoprotein (N, Tomato spotted wilt virus, UniProt P25999, R94A/Y184A) | binding, microscale thermophoresis |  | 0.4883 µM | dose series | MST response | 0.363 a.u.
CS(C)(=O)=Nc1ccc(-c2ccc(-c3nc4cc(O[C@@H]5CO[C@H]6[C@@H]5OC[C@H]6O)[nH]c4cc3F)cc2)cc1 | Muscle, skeletal receptor tyrosine-protein kinase (MUSK, Homo sapiens, UniProt O15146) | enzyme activity, inhibitor |  | 10 µM |  | inhibition | -7%
CC(C)CC(C(=O)N1CC2(CC1C#N)C(=O)Nc1ccccc12)N(C)C(=O)c1cc2c(F)cc(F)c(F)c2[nH]1 (stereo not drawn) | Replicase polyprotein 1ab, main protease (rep, Human coronavirus HKU1, UniProt P0C6X2) | enzyme activity |  | 0.01001 µM |  | remaining activity | 24.1%
CN(C)[C@H]1C[C@@]23CC[C@@]4(O2)C(=CC[C@]2(C)[C@@H](c5ccc6ccncc6c5)CC[C@H]24)C=C3[C@@H](O)[C@@H]1O | RPS6KC1 (Homo sapiens, UniProt Q96S38) | ATP probe labelling, inhibitor, KiNativ profiling |  | 0.1 µM |  | inhibition | -2.2%
Cn1nc(CCN)c(=O)c2c(=O)[nH]c(N)nc21 | Dihydropteroate synthase (folP, Bacteria, UniProt P0AC13) | CETSA HiBiT | whole cells |  |  | melting temperature | 61.7 °C
CC[C@H](C)[C@H](NC(=O)[C@H](CCCNC(=N)N)NC(=O)[C@H](CCCNC(=N)N)NC(=O)[C@H](CC(C)C)NC(=O)[C@H](Cc1ccccc1)NC(=O)CNC(=O)CNC(=O)[C@@H](N)Cc1ccc(O)cc1)C(=O)N[C@@H](CCCNC(=N)N)C(=O)N1CCC[C@H]1C(=O)N[C@@H](CCCCN)C(=O)N[C@@H](CC(C)C)C(=O)N[C@@H](CCCCN)C(=O)O | Probable G-protein coupled receptor 139 (GPR139, Homo sapiens, UniProt Q6DWJ6) | G protein activation, agonist, BRET, measured: Gα15 | HEK-293T/17 | 40 µM | baseline: GαoA response | Emax | 25%
CCN(N=Cc1cnc2ccc(Br)cn12)S(=O)(=O)c1cc([N+](=O)[O-])ccc1C | Phosphatidylinositol 4,5-bisphosphate 3-kinase catalytic subunit alpha isoform (PIK3CA, Homo sapiens, UniProt P42336, I771Y) | luminescence |  |  | baseline: mutant over wild type | IC50 fold change | 10
CC(C)(C)C(=O)OCOP(=O)(OCOC(=O)C(C)(C)C)C1CCCN(O)C1=O (stereo not drawn) | HOP-62 |  |  |  |  | log TGI | -5.18 log M
COc1ccccc1-c1n[nH]c2nc(NC3CCN(C(=O)Cc4ccc(F)cc4F)CC3)ncc12 |  | bead binding, competition bead pull-down, measured: LINJ.36.6710 | Leishmania donovani extract | 10 µM | baseline: vehicle | relative abundance | 0.8
Cc1cc(-c2ccc3ccccc3c2)nnc1NCCN1CCN(C)CC1 | Beta-2 adrenergic receptor (ADRB2, Homo sapiens, UniProt P07550) | antagonist |  | 10000 nM | baseline: control | activity | 0%
CC(C)CC(O)(CC(C)C)c1cn(C(=O)N2CCCC2)nn1 | Patatin-like phospholipase domain-containing protein 6 (Mus musculus, UniProt Q3TRM4) | probe labelling, inhibitor, competitive ABPP-SILAC, measured: Pnpla6 | mouse T cells | concentration not given, 4 h, in situ, protein level | baseline: treated over DMSO, lower = more inhibition | SILAC ratio | 1.49
N[C@H](C(=O)N1CCCC1)C1CCN(c2nccc3c(-c4ncc(Cl)cc4Cl)cccc23)CC1 | Protein-arginine deiminase type-4 (PADI4, Homo sapiens, UniProt Q9UM07) | thermal shift |  | 0.9507 µM |  | melting temperature | 56.5 °C and 57 °C
Nc1ccc(/C=C/C(=O)N2CCc3c(oc4c(-c5ccc(F)cc5)cc(-c5ccc(C(=O)N6CCC(F)(F)CC6)cn5)cc34)C2)cn1 | Mitogen-activated protein kinase 10 (MAPK10, Homo sapiens, UniProt P53779) | binding, competition with immobilised ligand |  | 1 µM |  | remaining binding | 91%
O=C1NC2(CC2)COc2ncc(F)cc2[C@H]2COCCN2c2ccn3ncc1c3n2 |  |  | Sprague-Dawley rat, male, serum | oral, 10 mg/kg/day, end of recovery, 4-week subacute toxicity |  | serum triglycerides | 0.39 ± 0.17 mmol/L
C/C(=N\OCCCN1CCCCC1)c1ccc(C(F)(F)F)cc1 | Glutamate NMDA receptor; GRIN1/GRIN2B (GRIN1/GRIN2B, Homo sapiens, UniProt Q05586+Q13224) | agonist, manual patch clamp |  | 10 µM |  | activation | 1.87%

For quick reference, copied from above:
Compound | target or system | test | system | setting | how to read | endpoint | value
CC(C)CC(O)(CC(C)C)c1cn(C(=O)N2CCCC2)nn1 | Patatin-like phospholipase domain-containing protein 6 (Mus musculus, UniProt Q3TRM4) | probe labelling, inhibitor, competitive ABPP-SILAC, measured: Pnpla6 | mouse T cells | concentration not given, 4 h, in situ, protein level | baseline: treated over DMSO, lower = more inhibition | SILAC ratio | 1.49
N[C@H](C(=O)N1CCCC1)C1CCN(c2nccc3c(-c4ncc(Cl)cc4Cl)cccc23)CC1 | Protein-arginine deiminase type-4 (PADI4, Homo sapiens, UniProt Q9UM07) | thermal shift |  | 0.9507 µM |  | melting temperature | 56.5 °C and 57 °C
